Measurements pooled from the literature.
Each numbered part is a random draw from the data of one study; scales do not carry over between parts.

Series 1 — method: RNA Bind-n-Seq; form: RNA; medium: in vitro; tested at: not given; reference: input RNA pool; direction: higher = stronger binding; measurement: bound/input enrichment
Target: RING finger protein unkempt homolog, zinc fingers 1-6, GST-SBP tag (UNK, Homo sapiens, UniProt Q9C0B0, residues 30-357)
Chain of UniProt Q9C0B0 (30-357, looked up): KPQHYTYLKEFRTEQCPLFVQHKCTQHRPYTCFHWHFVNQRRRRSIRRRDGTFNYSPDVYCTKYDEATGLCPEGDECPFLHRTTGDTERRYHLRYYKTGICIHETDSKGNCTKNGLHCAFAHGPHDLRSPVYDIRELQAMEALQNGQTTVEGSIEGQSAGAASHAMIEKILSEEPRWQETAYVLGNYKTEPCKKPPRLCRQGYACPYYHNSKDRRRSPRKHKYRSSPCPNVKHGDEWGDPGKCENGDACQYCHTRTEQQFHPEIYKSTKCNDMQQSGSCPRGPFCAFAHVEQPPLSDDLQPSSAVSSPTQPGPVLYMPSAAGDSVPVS
Setting: RNA with constant flanks, human and mouse sites, ends assumed
All sequences stand within: GGGAGUUCUACAGUCCGACGAUC … CAACAGAGGAUUGAGCAUCA
GAGUAGGGUUCCAGCUCUGGGACAUUGUGCUCAGGAAUUUGAAAACGCUGCUAUACUUACUCUGGUUACUACAUUUCUUCCACUCCCCUUUCCCCUACCUGCCUUAACCAAGGCUCAUAC: 0.321 ratio
AAUAAAUUGGAAUUUAAAAAUAUCGAUAUCACCAUGAUUUAAUCCAGAUCUGGGAUUAUGUAGCUAAACAUUGUGAUGAUUAUUAUUUAAAACCAUUAUUUAAUAAGAGUAAAAAUAUGU: 0.606 ratio
UAUAUAAUGGACAGCUAACGGAACAAUAUAAUCACCACAAUGCAGCUAGGAUAGUGUUGCGGCUAUAAUUUUGUGUUUUUUUUUUUUAAUUGUCUAGUCUUAAAUUUGUACAUCUUGUAU: 24 ratio
UUAGAAGCCUUUGGACAUGCCAAGACCACACUUAAUGAUUUGUCCAGUUGCUUCAUCAAGUAUUUUGAACUGCAGUUCUGUGAGAGGAAACAACAGCUAACCGGAGCCAGAAUUUAUACA: 0.313 ratio
GAGCUCUUCCCUGCUCGCUCACGCCUGCUCUCAGAAGCUCCGAUCCAGACACACGCGAGGCGCUGUCCUUUCAGCACCACAAGCUCGGGCUGAGGAGGGAGGACUCCUGGCCGUCCUCCU: 0.112 ratio
AAUGAAUCAUUGAACAAUCUUUUUAUUACAGAAGAAGAUUAUCAGGCUCUGCGAACAUCAAUAGAUGCUUAUGACAACUUUGACAAUAUCUCGCUUGCUCAGCGUUUGGAAAAACAUGAA: 0.177 ratio
GCCCUCAACUUCUCCGUGUUCUACUAUGAGAUCCAGAAUGCACCUGAGCAAGCCUGCCUCUUAGCCAAACAAGCCUUCGAUGAUGCCAUAGCUGAGCUGGACACACUAAACGAGGAUUCC: 0.256 ratio
AAGGGGGAGGUCGCCCCCAAGGAGACCCCCAAGAAGAAGAAGAAAUUCUCUUUCAAGAAGCCUUUCAAAUUGAGUGGCCUGUCCUUCAAGAGAAAUCGGAAGGAGGGUGGGGGUGAUUCC: 0.195 ratio

Series 2 — method: RNA Bind-n-Seq; form: RNA; medium: in vitro; tested at: 365 nM; reference: no-protein control; direction: higher = stronger binding; measurement: RBNS enrichment (R)
Target: RNA binding protein fox-1 homolog 2, RRM domain, GST-SBP tag (RBFOX2, Homo sapiens, UniProt O43251-10, residues 100-194)
Setting: natural RNA segment, single round, ends assumed
All sequences stand within: GGGAGUUCUACAGUCCGACGAUC … UGGAAUUCUCGGGUGCCAA
Residues (chain): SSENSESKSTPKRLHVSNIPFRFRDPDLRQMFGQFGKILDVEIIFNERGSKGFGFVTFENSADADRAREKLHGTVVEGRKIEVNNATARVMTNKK
CCCGUCUUGUGGGGGAGUUUUCUUGCCUAAGAUUUAAUGCAGUUCUCUCUACCCAGUGGGCGCUGCUGUUAAGGGGCCAUCUGCUGAAAACGUUUCCCCAGGCCCUGCUG: 0.222
UGUUUUCUGCCUUCCCACCUUCUCCCCCAGUGUUCGGAUGAAUGUUCCUGGCUGUCUCUGUUCCCUUGCUGUGGGGCUGUGUCCCUCCUUUGGGAGCAUGUGUGGCUAGG: 0.853
UCCUGUUUUGGUUUAACAGUUUCUGAGAUACGUGUGUUAUAGGUUCAUUUACUACGAUCUGUCCACACUCGAAAAGUAGGCUACAUUAAAUCAUGCUAGCAGCCUUAAGA: 0.225
GCAAAGGUUAACAUAUAAUGCCAAAUUUUUCCAUUCUGGUGCCCAUAUAGAUGACUUAAUUACAUUCUUGAUUGGUCAUGUGCAGUCUUCUGAAGAUGAGCUAACAAUGC: 0.447
GGGUUCUCUGGUCCAAGACCCUGCUUUAAAGAGAGUCUUUGGCGUGCUCAGACUCCAGCGCUCCGUUCUUCAAGGAGGUUGACUUGCCUCUCGGGCCCCGUAGGUACCAA: 0.291
AAUGCUAGCUUGUGUGGUCUUCCAUGAUUUAUUUGUGUUUUGUGAAUUUUCAAUUUAUGGUGAUGAUCUGCUGAUAUGCAUUUAUAAAGUAAGCUCUGUUGUACAGUCUG: 0.786
GCCCCUUCAGCUGCUAGUGAUAUCACUUGUUGGACAUUUUUCCAAUAAAGGUUCUUGGACAAACUGGGCUGACUGUAUAGUAUGCUGAAGACAUUUCCUCACCUUGUCUC: 0.447
AGCCCCUGGUGUCUGCAGUGGGGGAUUUAAGGCACCCGCUUCCACUUCUUUCUUGUUUGGAGUUUUCUGUUGGAACCGCCGGCGUUGGCUCCGAAGACUUAGCGACGCCA: 0.737

Series 3 — method: universal PBM; form: double-stranded DNA, one strand shown; medium: in vitro; tested at: not given; direction: higher = stronger binding; measurement: E-score
Target: Sal-like protein 4, full length isoform B (SALL4, Homo sapiens, UniProt Q9UJQ4-2, residues 1-616)
Setting: 8-mer, flanks averaged, mean of replicates
Residues (chain): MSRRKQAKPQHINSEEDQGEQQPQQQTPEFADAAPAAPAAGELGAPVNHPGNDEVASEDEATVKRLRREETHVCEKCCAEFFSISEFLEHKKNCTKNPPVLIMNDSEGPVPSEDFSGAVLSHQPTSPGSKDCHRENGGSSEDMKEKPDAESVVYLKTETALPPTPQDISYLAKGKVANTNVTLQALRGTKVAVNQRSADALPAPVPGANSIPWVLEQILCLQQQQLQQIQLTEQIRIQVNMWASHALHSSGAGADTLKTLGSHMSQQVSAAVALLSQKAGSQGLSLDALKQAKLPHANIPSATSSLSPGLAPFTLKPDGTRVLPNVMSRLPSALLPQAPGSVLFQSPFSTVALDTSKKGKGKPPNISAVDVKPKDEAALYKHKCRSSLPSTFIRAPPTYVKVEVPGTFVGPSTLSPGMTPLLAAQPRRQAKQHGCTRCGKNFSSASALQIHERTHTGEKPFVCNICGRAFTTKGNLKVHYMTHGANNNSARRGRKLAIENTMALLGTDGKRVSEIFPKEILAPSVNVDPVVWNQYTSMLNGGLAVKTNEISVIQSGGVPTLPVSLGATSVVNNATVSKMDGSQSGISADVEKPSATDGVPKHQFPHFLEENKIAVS
AGACTCTC: -0.173
GAGAGGCC: -0.241
ACTCACAC: -0.0939
AGGAAAAC: 0.0183
ATTGCCCC: 0.0283
CCGATCCG: -0.303
CCTCTACG: -0.159
CTCCCAAG: -0.061
GTAGCCAC: -0.17
CTGTTTCC: 0.114
ACTGCTGA: -0.171
AGAAATCT: 0.232
CGTATCAA: 0.16
AGGCACGA: -0.102
AGACGTTG: -0.0469
AAGACCAG: -0.192
AAGTTCTG: 0.0474

Series 4 — method: protein-binding microarray; form: double-stranded DNA, one strand shown; medium: in vitro; tested at: 2200 nM top; setting: 60-bp whole probe; with: salmon DNA 0.4 mg/ml; reference: random background probes; direction: higher = stronger binding; measurement: fitted relative affinity; all sequences stand within: GCCTAGCAC … GTCTTGATTCGCTTGACGCTGCTG
Target: Interferon regulatory factor 7, full length, phosphomimetic (IRF7, Homo sapiens, UniProt Q92985, residues 1-503, S471D/S472D/S475D/S476D/S477D/S483D/S484D/S487D)
Target sequence (chain): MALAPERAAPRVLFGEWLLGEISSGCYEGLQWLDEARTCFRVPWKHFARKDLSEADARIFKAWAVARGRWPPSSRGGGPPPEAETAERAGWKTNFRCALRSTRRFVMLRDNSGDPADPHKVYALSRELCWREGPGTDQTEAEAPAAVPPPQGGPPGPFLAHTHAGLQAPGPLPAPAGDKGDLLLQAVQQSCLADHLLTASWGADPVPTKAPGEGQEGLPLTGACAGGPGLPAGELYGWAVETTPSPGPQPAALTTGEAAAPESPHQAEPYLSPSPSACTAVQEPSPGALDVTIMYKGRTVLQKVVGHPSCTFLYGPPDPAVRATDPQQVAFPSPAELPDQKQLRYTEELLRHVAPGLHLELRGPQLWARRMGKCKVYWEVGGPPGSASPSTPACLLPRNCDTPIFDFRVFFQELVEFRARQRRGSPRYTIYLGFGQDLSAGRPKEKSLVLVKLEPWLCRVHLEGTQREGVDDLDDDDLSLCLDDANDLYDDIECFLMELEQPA
GACGGTATTCTTCTCCTGACGTGCTAG: 0.995 z-score
GACCGTTTCGGTCTCGGGACGTGCTAG: 4.72 z-score
TTAGGTTCCCTTTTCCTGTAGTGCTAG: 2.8 z-score
TTTTTTTTTTCCCTGAAAAAGTGCTAG: 2.16 z-score
TTAGGTTTCCTCTTCCTTTAGTGCTAG: 2.57 z-score
TTAGGACTGGACACTCGGTTAGTGCTA: -0.055 z-score
GACGAACTGGGGAATGGAGACGTGCTA: -0.00985 z-score
TGAGATTTCAGACTGGATTAGTGCTAG: -0.375 z-score
TTATGTATCGGTCTCGGTTAGTGCTAG: 1.45 z-score
GACGGACTCCTTCTCCTGACGTGCTAG: 0.619 z-score
TTAGATATCAGTATCGATTGGTGCTAG: 0.614 z-score
TTTTTTTTTTTTTTTTTGTAGTGCTAG: 1.95 z-score
TTAGACATCAGTTTCGATTAGTGCTAG: 5.42 z-score
TTAGGTCGCGGTTTCGGTTAGTGCTAG: 5.84 z-score
TCAGGTATCGGGACTGGGTTAGTGCTA: 0.0297 z-score
GACGGAATGGGGTATCGGGACGTGCTA: -0.298 z-score
GACGGTATCGGTTTCGCGACGTGCTAG: 2.47 z-score
TAGAAATTTTTTTTCTAACTGTGCTAG: -0.401 z-score
TTAGATATCGGGTATGGATTAGTGCTA: 0.0811 z-score

For quick reference, copied from above (series 4):
TTAGATATCAGTATCGATTGGTGCTAG: 0.614 z-score
TTAGACATCAGTTTCGATTAGTGCTAG: 5.42 z-score
TAGAAATTTTTTTTCTAACTGTGCTAG: -0.401 z-score
TTAGGTCGCGGTTTCGGTTAGTGCTAG: 5.84 z-score
TTAGGACTGGACACTCGGTTAGTGCTA: -0.055 z-score
GACGGTATCGGTTTCGCGACGTGCTAG: 2.47 z-score
